Assay results gathered from unrelated publications.
Cell line: 4T1

| Compound | test | conditions | scale | quantity | value |
| --- | --- | --- | --- | --- | --- |
| CC(=O)Oc1c2c(c3ccc4c(c3c1OC(C)=O)C=CC(=O)C4(C)C)OC[C@@H]2C | – | concentration not given, 24 h | – | GSSG/GSH ratio | increased |
| CCNS(=O)(=O)c1ccc(COc2ccc3nc4ccc(=O)cc-4oc3c2)cc1 | Matrigel Transwell | 1 µM, 48 h | – | cell invasion | inhibited |
| COc1cccc(C(O)c2c[nH]c3ncc(C(F)(F)F)cc23)c1 (stereo not drawn) | cell growth or viability, MTT | 10 µM, 72 h | – | inhibition | 16% |
| C[C@@H](C[C@@H](O)[C@H](O)C(C)(C)O)[C@@H]1CC[C@]2(C)C3=CC[C@H]4C(C)(C)C(=O)CC[C@]4(C)[C@H]3CC[C@@]12C | cell growth or viability, MTT | 48 h | – | IC50 | 8 µM |
| CSc1ccc(-c2noc(-c3cccs3)c2C(F)(F)F)cc1 | cell growth or viability, MTT | 48 h | – | IC50 | 28.6 µM |
| C=C1[C@@H]([C@@]2(C)C=CC(=O)C(C)(C)[C@@H]2CC(=O)OC)[C@@H](OC(C)=O)[C@H](OC(C)=O)[C@@]2(C)[C@H](c3ccoc3)C[C@H]3O[C@]132 | cell growth or viability, MTT | 48 h | – | IC50 | 88.6 µM |
| Cn1cncn1.[Ru+2].c1cc(-c2ccc3ccccc3n2)nc(-c2ccc3ccccc3n2)c1.c1ccc2cc3nc4c5cccnc5c5ncccc5c4nc3cc2c1 | MTT | – | reference: dark EC50 over light EC50 | phototherapeutic index | 2 |
| Cc1ccc(-c2noc(-c3cccs3)c2C(F)(F)F)cc1 | cell growth or viability, MTT | 48 h | – | IC50 | 31.2 µM |
| COc1cccc(Cc2c[nH]c3ncc(C(F)(F)F)cc23)c1 | cell growth or viability, MTT | 10 µM, 72 h | – | inhibition | 18% |
| O=C1/C(=C/c2ccc(B(O)O)cc2)CC/C1=C\c1ccc(B(O)O)cc1 | cell growth or viability, MTT | 24 h | – | IC50 | 50 µM |
| FC(F)(F)c1c(-c2ccc(Br)cc2)noc1-c1cccs1 | cell growth or viability, MTT | 48 h | – | IC50 | 31.7 µM |
| FC(F)(F)c1cccc(Cc2c[nH]c3ncc(C(F)(F)F)cc23)c1 | cell growth or viability, MTT | 10 µM, 72 h | – | inhibition | 26% |
| CC(=O)Nc1ccc(OC(=O)CCC(=O)[O][Pt-2]23([O]C(=O)CCC(=O)Oc4ccc(NC(C)=O)cc4)([NH2+][C@@H]4CCCC[C@H]4[NH2+]2)[O]C(=O)C(=O)[O]3)cc1 | Western blot, item: Sam50 and COX II | 2 µM, 24 h | – | protein level | decreased |
| COc1cc(Cc2c[nH]c3ncc(C(F)(F)F)cc23)cc(OC)c1 | cell migration | 3.3 µM, 24 h | – | inhibition | 36.1% |
| Clc1ccc2ccc3[n+](c2c1)[Ir-3]12([c]4ccccc4-3)([c]3ccccc3-c3ccc4ccc(Cl)cc4[n+]31)[n+]1ccccc1-c1cccc[n+]12.F[P-](F)(F)(F)(F)F | cell migration, Transwell | 0.3 µM, 24 h | – | inhibition | 73% |

For quick reference, copied from above:
| Compound | test | conditions | scale | quantity | value |
| --- | --- | --- | --- | --- | --- |
| Cn1cncn1.[Ru+2].c1cc(-c2ccc3ccccc3n2)nc(-c2ccc3ccccc3n2)c1.c1ccc2cc3nc4c5cccnc5c5ncccc5c4nc3cc2c1 | MTT | – | reference: dark EC50 over light EC50 | phototherapeutic index | 2 |
